Experimental data gathered from unrelated publications.
Each numbered part is a random draw from the data of one study; scales do not carry over between parts.

Block 1
Target: RING finger protein unkempt homolog, zinc fingers 1-6, GST-SBP tag (UNK, Homo sapiens, UniProt Q9C0B0, residues 30-357)
Chain of UniProt Q9C0B0 (30-357, looked up): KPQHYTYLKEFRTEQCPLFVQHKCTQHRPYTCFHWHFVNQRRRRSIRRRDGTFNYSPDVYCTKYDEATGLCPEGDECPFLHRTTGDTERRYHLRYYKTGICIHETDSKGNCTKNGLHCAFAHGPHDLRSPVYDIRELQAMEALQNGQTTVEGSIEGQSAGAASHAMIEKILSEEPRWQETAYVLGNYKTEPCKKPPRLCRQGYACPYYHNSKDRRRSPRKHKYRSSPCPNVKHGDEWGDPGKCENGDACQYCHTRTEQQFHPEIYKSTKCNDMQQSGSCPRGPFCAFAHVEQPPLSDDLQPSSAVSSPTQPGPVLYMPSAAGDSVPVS
Technique: RNA Bind-n-Seq
Molecule type: RNA
Matrix: in vitro
Concentration: not given
Setting: RNA with constant flanks, human and mouse sites, ends assumed
Relative to: input RNA pool
Direction: higher = stronger binding
Shared flanks, not repeated: GGGAGUUCUACAGUCCGACGAUC … CAACAGAGGAUUGAGCAUCA
With `UACUGCUUUCAACUUAAAUCACUGAGGCAUUUUUACUACUAUUCUGUUAAAAUCAGGAUUUUAGUGCUUGCCACCACCAGAUGAGAAGUUAAGCAGCCUUUCUGUGGAGAGUGAGAAUAA` the bound/input enrichment was 0.136 ratio.
With `AAUGUGGAAACAGUAGAAUAUAAGAACAUUUGUUUCACAGUAUGGGAUGUUGGUGGUCAAGAUAGAAUUAGGCCUCUCUGGAAGCAUUACUUCCAGAAUACCCAGGGUCUUAUUUUUGUG` the bound/input enrichment was 0.854 ratio.
`GUCUAAUAAAAAGACAAGCGGUGGGACAGAGGGAACCUACAACCAAAAACUGCCUAGAUCUUUGCAGUUAUGUGCUUUAUGCCACGAAGAACUGAAGUAUGUGGUAAUUUUUAUAGAAUC` gave a bound/input enrichment of 0.409 ratio.
For `UCAGAUAACGUCACUCGCGCUUGUAGCUUCAUCCGGGAGGCAGCAACGCAAGGAGCCAAAAUAGUUUCUUUGCCGGAAUGCUUUAAUUCUCCAUAUGGAGCGAAAUAUUUUCCUGAAUAU`, the bound/input enrichment was 0.691 ratio.
For `AGCUAUGUGAGUAGGAGAAGGAGAACUAAAAAGAGUGUGGAUACAAGCGUCCAAACUGAUGAUGAAGAUCAGGAUGAGUGGGAUAUGCCUACUAGAUCAAGGAGGAAAGCUCGUGUAGGG`, the bound/input enrichment was 0.451 ratio.
`UUCUUUCCCCGAAACCCAUCGAGCUCCAGCAUGAACUCGGUUCUGGGGAAUCAUCACCCAACUCCCAGCCAUGGCCCUGAUGGGGCGGUGCCUACCAUGGCUGAUGACCUGGGGGAGCCA` has a bound/input enrichment of 0.115 ratio.
With `GAAGGAUCUAGGAAAUCAUCAAGGGUUAAGGGUUCAGCACCAGAAAUUGAUCCUUCAUCUGAUAGUUCAAAUUUUGUUUGGGAAACAAAAAUCAAAGCAUGGAUGGAUCGUUACGAAGAA` the bound/input enrichment was 0.427 ratio.
`GUCCCUCCAGCACUUGGGAGUAAUUUGACCGACAAUGUCAUGAUCACAGUAGAUAUUAUUCCUUCAGGUUGGAAUUCAGCUGAUGGUAAAAGUGAUAAAACUAAAAGUGCGCCUUCAAGA` gave a bound/input enrichment of 0.27 ratio.

Block 2
Cell line: HEK-293T
Observed: pseudovirus infection
Technique: FDA-approved drug library screen
Organism: VSV pseudotyped with SARS-CoV-2 spike
Concentration: 10 µM
Time: 16 h
Relative to: vehicle-treated
With C[C@H]1[C@H](NC(=O)/C(=N\OC(C)(C)C(=O)O)c2csc(N)n2)C(=O)N1S(=O)(=O)O the GFP-positive cells was 66.8%.
N=C(N)NC(=O)Cc1c(Cl)cccc1Cl has a GFP-positive cells of 79.6%.
With CNCCCN1c2ccccc2CCc2ccccc21 the GFP-positive cells was 83.2%.
COc1cc2nc(N(C)CCCNC(=O)C3CCCO3)nc(N)c2cc1OC (centres unmarked) gave a GFP-positive cells of 103%.

Block 3
Target: Centromere-binding protein 1, full length, His-tagged (CBF1, Saccharomyces cerevisiae, UniProt P17106, residues 1-351)
Chain of UniProt P17106 (whole entry, looked up): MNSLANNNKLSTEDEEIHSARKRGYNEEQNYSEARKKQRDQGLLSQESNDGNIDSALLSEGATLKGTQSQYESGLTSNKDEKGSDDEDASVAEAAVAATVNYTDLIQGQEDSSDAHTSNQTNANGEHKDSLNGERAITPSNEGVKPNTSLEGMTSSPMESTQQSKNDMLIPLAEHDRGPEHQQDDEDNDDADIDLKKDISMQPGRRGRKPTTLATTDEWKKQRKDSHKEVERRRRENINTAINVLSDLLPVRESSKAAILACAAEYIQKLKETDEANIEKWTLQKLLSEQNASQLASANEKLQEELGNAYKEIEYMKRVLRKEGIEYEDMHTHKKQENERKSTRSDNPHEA
Technique: competition protein-binding microarray
Molecule type: double-stranded DNA, one strand shown
Matrix: in vitro
Concentration: 2 µM
Setting: whole 60-bp probe, lowest competitor level
Together with: Pho4 competitor, 0.05 µM
Direction: higher = stronger binding
Shared flanks, not repeated: … GTCTTGATTCGCTTGACGCTGCTG
`CTAACGAAGGTTTGCGGAGTGGGTGACAAGCCAAGT` gave a fluorescence intensity of 67.8 a.u.
`TTGGTGTTTCTGCCTTACGTGGTGAGTTTAAGGACC` gave a fluorescence intensity of 79.7 a.u.
With `TTAATATTATACGAAAACGTGCAAAACGGCACAAAC` the fluorescence intensity was 203 a.u.
The fluorescence intensity of `CTTTCCCGATCTTGTCACAGTACTTTAGCACATTTG` is reported as 85.6 a.u.
`CTTCTGTAAATTTGAGTCGTGGGTGGACGCGCCCCG` has a fluorescence intensity of 82.8 a.u.

Block 4
Target: RNA binding protein fox-1 homolog 2, RRM domain, GST-SBP tag (RBFOX2, Homo sapiens, UniProt O43251-10, residues 100-194)
Technique: RNA Bind-n-Seq
Molecule type: RNA
Matrix: in vitro
Concentration: 365 nM
Setting: natural RNA segment, single round, ends assumed
Relative to: no-protein control
Direction: higher = stronger binding
Shared flanks, not repeated: GGGAGUUCUACAGUCCGACGAUC … UGGAAUUCUCGGGUGCCAA
Construct (chain): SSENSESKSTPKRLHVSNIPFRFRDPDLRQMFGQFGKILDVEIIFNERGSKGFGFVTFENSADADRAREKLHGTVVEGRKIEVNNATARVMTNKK
`GGCGCUAUUAGGAAGCGUGGCCUUUUUGGACUAGGUGUGUCACUGUGGCUGUGGGGUAUAGCACCCUCACCCUAGCUGCCUGGAAGCCAGUAUCCUGCGAGCAGCCUUCA` — result for “RBNS enrichment (R)”: 0.447.
`AACGAGGACUCUGGAUCCAGAUUUAAGUAGAUUCAAACACCACUUAACACCAGUAACCGAUUUUAGGACCUUGAGCAAGUUAAAUAACUUCUUCCUGCCUUGGUUUCCCC`: “RBNS enrichment (R)” 0.182.
`ACAACUCUUCCACCCCAAACAAAAGGGCUCAGGCUACACACGACCAUGAUUUAUGUUUUCAGGGGAUGCCCAUUUGUCCCAAGCUUAUCCUGUAAUUCUAGAAUUACCUG`: “RBNS enrichment (R)” 0.368.
Under “RBNS enrichment (R)”, `UUUGAAGCCCACAGUUUUAGUUGGUACUGACGGAGGGGAGAUUGAGCGAUGCUCUUUCCUUCUCUGUUUAGGAAGAAGUGGUACUAGUGUGGUGUGUUUGCCUGGAAGUC` is recorded as 0.378.
Under “RBNS enrichment (R)”, `CAGUGUUUGUGGGAUAUCCCCAAAGGAAAGCUGUGUUCUAAUUUUAUCAUUUCCAUCUGUCUGGUUAUGUCAAGUUAACUCAGAAAAAGAAGAGACACUGACCAACCCUG` is recorded as 0.372.
`GAGUGUCUUUAGCCCCUGCCCUACUUUUCCCUCUCUGACUUUUUUCCCAGGUAGCUUAGUGUUUAACAUCUCUCUCACCAUCCUGAUGCAGUAGCAUGGCUAUUGCUGAG`: “RBNS enrichment (R)” 1.28.
For `UGUGAAUAUUUUCAACUAUGUAGGUAAAUUCUUAAUGUUCACAUAGUGAAAUAAAUUCUGAUUCUUCAAAUUAAAUUCUGUUCUCUUGUCAAGGGGGCAGGUGGGUGAAG`, “RBNS enrichment (R)” read 0.461.
`UUUUCAUCUGAUUAUGUUAGGCCCUAGCUCUAGGUCAGCCCUGCUGGGCCCUUGAGAGGGGCUCUGUGGCUGCAGAGCUGUUUUUACCCUGACAACUGGGUUUGUCCUCC`: “RBNS enrichment (R)” 0.226.

Block 5
Target: Replicase polyprotein 1ab, nsp13 helicase (rep, Severe acute respiratory syndrome coronavirus 2, UniProt P0DTD1)
Mode: inhibitor
Concentration: 20 µM
With CN(C)C(=O)COC(=O)Cc1ccc(OC(=O)c2ccc(NC(=N)N)cc2)cc1 the inhibition was 4.11%.
The inhibition of COC(=O)C1=C(C)NC(C)=C(C(=O)OC/C=C/c2ccccc2)C1c1cccc([N+](=O)[O-])c1 (centres unmarked) is reported as -0.4%.
The inhibition of CN1c2ccccc2C(NCCCCCCC(=O)O)c2ccc(Cl)cc2S1(=O)=O (centres unmarked) is reported as 3.41%.
For O=C1NCCN1c1ncc([N+](=O)[O-])s1, the inhibition was 6.6%.
Nc1nccs1 gave an inhibition of 5.23%.
For O=c1cc[nH]c2cc(Cl)ccc12, the inhibition was 12.5%.
For COc1cc(-c2ccc(/N=N/c3ccc4c(S(=O)(=O)O)cc(S(=O)(=O)O)c(N)c4c3O)c(OC)c2)ccc1/N=N/c1ccc2c(S(=O)(=O)O)cc(S(=O)(=O)O)c(N)c2c1O, the inhibition was 103%.
With C=C(C)[C@@H]1CCC(C)=C[C@H]1c1c(OC)cc(C)cc1OC the inhibition was 4.96%.
The inhibition of BrC1C(Br)C(Br)C(Br)C(Br)C1Br (centres unmarked) is reported as 1.29%.
O=C(/C=C/c1c(C(=O)O)[nH]c2cc(Cl)cc(Cl)c12)Nc1ccccc1 gave an inhibition of 7.34%.
NC(=O)c1cccc(N)c1 has an inhibition of 2.97%.
The inhibition of O=C(O)CC/C=C\C[C@H]1CO[C@@H](c2ccccc2Cl)O[C@H]1c1ccccc1O is reported as 12.2%.
For C[C@H](NC(=O)Cc1cc(F)cc(F)c1)C(=O)N[C@@H]1C(=O)N(C)c2ccccc2-c2ccccc21, the inhibition was -0.6%.
For COc1ccc(S(=O)(=O)Nc2c(C)cc(C)cc2C)cc1, the inhibition was 2.34%.
For CCCCCCN(CCCCCC)C(=O)Cc1c(-c2ccc(Cl)cc2)[nH]c2ccc(Cl)cc12, the inhibition was 5.33%.
OCCN1CCN(CCCN2c3ccccc3Sc3ccc(Cl)cc32)CC1 has an inhibition of 7.5%.
O=C(/C=C/c1ccc2ccc(C(F)(F)F)cc2n1)c1ccncc1 has an inhibition of 60.8%.
With O=C1NC(c2ccccc2)(c2ccccc2)C(=O)N1COP(=O)(O)O the inhibition was 5.08%.
CCN1CCN(c2ccc(C(C)(C)NC(=O)c3cc4[nH]c5ccccc5c(=O)c4cc3F)cn2)CC1 has an inhibition of -4.08%.
O=C(Nc1ccc2[nH]ccc2c1)c1ccccc1 has an inhibition of -0.23%.
CN1CCC(NC(=O)c2cc(-c3c(O)cc(O)cc3Oc3ccc([N+](=O)[O-])cc3)on2)CC1 has an inhibition of 6.46%.
The inhibition of CCOC(=O)C1=C(C)NC(C)=C(C(=O)OC)C1c1cccc([N+](=O)[O-])c1 (centres unmarked) is reported as 7.68%.
For CCC(NC(C)C)C(O)c1ccc(O)c(O)c1 (centres unmarked), the inhibition was -2.75%.
With O=c1cc(N2CCOCC2)oc2c(-c3ccccc3)cccc12 the inhibition was 8.95%.
The inhibition of CCCCC1OC(=O)c2ccccc21 (centres unmarked) is reported as 12.4%.

Block 6
Target: Replicase polyprotein 1ab, main protease (rep, Severe acute respiratory syndrome coronavirus 2, UniProt P0DTD1)
Observed: enzyme activity
Mode: inhibitor
Concentration: 20 µM
Setting: primary screen
For CC1=C(CCC(=O)O)c2cc3[nH]c(cc4nc(cc5[nH]c(cc1n2)c(C)c5C(C)O)C(C)=C4C(C)O)c(C)c3CCC(=O)O (centres unmarked), the inhibition was 46.2%.
For c1cc2c(cc1C1CCCCC1)c1c3n2CCNC3CCC1 (centres unmarked), the inhibition was 39%.
CN(C)c1ccc2c(c1)Sc1cc(N(C)C)ccc1N2 gave an inhibition of 41.9%.

For quick reference, copied from above (block 5):
O=C(Nc1ccc2[nH]ccc2c1)c1ccccc1 has an inhibition of -0.23%.
For COc1ccc(S(=O)(=O)Nc2c(C)cc(C)cc2C)cc1, the inhibition was 2.34%.
For O=c1cc[nH]c2cc(Cl)ccc12, the inhibition was 12.5%.
The inhibition of CCCCC1OC(=O)c2ccccc21 (centres unmarked) is reported as 12.4%.
